# Experimental data collected from several papers.
# Every numbered part comes from another study and shows a few of its results, in no order.

# Sample 1
# Target: Prothrombin, mature alpha-thrombin (F2, Homo sapiens, UniProt P00734)
# Method: aptamer microarray, sandwich
# Form: DNA with 2'F-ANA
# Sample: in vitro
# Tested at: 200 nM
# Setting: whole 15-mer aptamer, many near background
# Added: Cy3 exosite-II aptamer, 400 nM
# Reading: higher = stronger binding
# Strand: GGTTGGTGTGGTTGG
Modification,mean fluorescence intensity
2'F-ANA at 3 4 8 10 12 13,293 a.u.
2'F-ANA at 1 2 4 6 10 11 14 15,47.6 a.u.
2'F-ANA at 3 6 9 13 14 15,425 a.u.
2'F-ANA at 3 4 6 7 8 10 15,269 a.u.
2'F-ANA at 4 5 7 8 10 14,48.8 a.u.
2'F-ANA at 3 4 6 9 11 13 15,375 a.u.
2'F-ANA at 1 7 10 12 13 14 15,48.2 a.u.
2'F-ANA at 1 5 7 8 9 13,48.5 a.u.
2'F-ANA at 2 3 4 8 10 12 14,199 a.u.
2'F-ANA at 3 8 14 15,636 a.u.
2'F-ANA at 1 3 4 7 8 9 10 11,78.9 a.u.
2'F-ANA at 2 3 4 6 7 8 9 10 12 13 14 15,161 a.u.
2'F-ANA at 2 4 6 8 10 11 13 14,59.4 a.u.
2'F-ANA at 2 5 6 8 9 11 12 13 14,49.4 a.u.
2'F-ANA at 2 3 5 7 10 11 12 14,50.3 a.u.
2'F-ANA at 1 2 4 9 11 12 15,213 a.u.
2'F-ANA at 2 5 6 7 9 14 15,48.3 a.u.
2'F-ANA at 2 4 5 6 10 13 14 15,48 a.u.
2'F-ANA at 2 3 5 13 15,72.3 a.u.
2'F-ANA at 3 4 5 6 7 12 15,195 a.u.

# Sample 2
# Target: RING finger protein unkempt homolog, zinc fingers 1-6, GST-SBP tag (UNK, Homo sapiens, UniProt Q9C0B0, residues 30-357)
# Method: RNA Bind-n-Seq
# Form: RNA
# Sample: in vitro
# Tested at: not given
# Setting: RNA with constant flanks, human-mouse chimeric sites, ends assumed
# Relative to: input RNA pool
# Reading: higher = stronger binding
# Constant ends, left off below: GGGAGUUCUACAGUCCGACGAUC … CAACAGAGGAUUGAGCAUCA
# Target sequence (chain): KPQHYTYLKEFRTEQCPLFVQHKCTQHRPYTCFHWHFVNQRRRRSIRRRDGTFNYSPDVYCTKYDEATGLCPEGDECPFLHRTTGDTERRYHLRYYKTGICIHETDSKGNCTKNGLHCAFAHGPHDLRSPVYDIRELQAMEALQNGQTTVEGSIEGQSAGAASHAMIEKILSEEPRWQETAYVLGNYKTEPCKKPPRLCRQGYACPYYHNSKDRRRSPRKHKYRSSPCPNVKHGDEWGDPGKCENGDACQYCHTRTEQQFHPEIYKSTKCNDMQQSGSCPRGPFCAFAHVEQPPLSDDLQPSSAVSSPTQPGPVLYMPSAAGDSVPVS
Strand,bound/input enrichment
AGUGUGCAGGAAUUCAUGACCUUUACAAGUCAACUGAUUGUGGAGCGCUCGGGGAAAGGCAGCAGAGCUUCUGUCAAAGAACAAGAGUAUCUGUGCCAUGUCUACGUCCGGAGCGACAGU,0.104 ratio
AAAGAGUGGAUAGAAUGUGCACACGGGAUCGGUGGGACCCGGGCGAAAAAGGAGUGCAAGAUAGAGUUCGAUGACUUCGAAGAGUGCUUGCUUCGGUACAAAACGAUGAGGCGAAUGCAU,0.317 ratio
AGCACAACCCCAGCAAAGCUAAGAAAUCCUUGUACAAGUGAACAAAACUGCACCAGCCCAUUUAGCUACAAAAAUGUGCUCAGUCUUACUGACAGAGGAGAAGUAUUCAAUGAACUUGUU,0.724 ratio
AGAAUCUUGGGACUGUUUUACUUAAUUGGUCAUUGGUAGCUUAACAAACAUGGAGAUAAGAUUAGAAAUCUUGACAUCAACAGGUAUCAAGCAGAAAAAACCAUGGCCACGUGUCUCCUG,0.111 ratio
CUGGCACUGUAUCAGAUAUAUUAAUUUUUUAAUGUAGAUGUAAUUUUAAAAAUGAAUGGCUACUUUACACGUUUAACUAGGGUUUUACUACAUAUGUGUACAUAUGUAUAUAUAUAUAUA,6.11 ratio
UGACAAGGGCACUGCAGAGCCAUGCCUUUCUUGGACAUCCAGAAAAGGCUGGGCAUCAGCCUGGACCGGCACUUUAUGUUCCUAAGCGCAGAACAGCCCUAUAAGAACGCCGCUCGGUGC,0.0547 ratio
UAAGUCCUGUGCCAGCACUUCGCUCAUAAAGUUUUAAAUUCUGGACCAAUUGUGUUUGUUUCCUGAUUAUUGUAUCCAAUACUUUGCGUACUAUGUGACUCACUCUUACUGAUAAUAAAA,0.232 ratio
UCCUGGUCGUGUCCCAGUGCAGGACGAUGUGAACAAAAACUCAAAGCGGACCCUCUAUUGUAGUUCUUGAUUCUCGAAAUGUGCUAUUGUUUUUAAACUUUUUUUUUUUUUUUUUAAAGA,0.799 ratio
GCUCUUGGGAAUGUAAUCAGCGCCUUGGGAGACAAGAGCAAGAGAGCCACCCAUGUCCCUUACAGAGAUUCCAAGCUGACAAGACUCUUGCAGGAUUCCCUUGGGGGUAACAGCCAAACC,0.0885 ratio
AGAGAAAUGAGAAAGAAUCUUACACAAGAAGAGAUGCAAAGAAUGUCUACUAGAGUCCUUUUGGCGACUCUUUCCAUCCCUAUUACUCCUGAGCGAACGGAUAUUGCUCGACUUUUGGAU,0.106 ratio
GAAUCCUACUCAGGCGGAUUUUGCAACACCAAGCUCACAGCAGCAGCUCCAUAGUCACAGUAGGGUAGCUUUAGGGCUCUGUGGCCAGGGUUUUAUUCACAUGCAGGUUUGGAAAAUGUA,0.724 ratio

# Sample 3
# Target: Histone acetyltransferase KAT6A, both winged helices, GST fusion (KAT6A, Homo sapiens, UniProt Q92794, residues 1-181)
# Method: protein binding microarray
# Form: double-stranded DNA, one strand shown
# Sample: in vitro
# Tested at: not given
# Setting: 8-mer, flanks averaged, mean of 2 arrays, mostly near background
# Relative to: not given
# Reading: higher = stronger binding
# Target sequence (chain): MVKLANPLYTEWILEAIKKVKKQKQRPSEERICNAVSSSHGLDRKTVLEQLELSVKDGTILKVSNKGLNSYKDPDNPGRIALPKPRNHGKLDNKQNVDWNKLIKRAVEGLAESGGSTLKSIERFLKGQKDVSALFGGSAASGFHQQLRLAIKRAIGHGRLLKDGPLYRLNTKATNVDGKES
Strand,E-score
AGAGTGCG,0.104
ATCTTAGA,-0.00387
CAGCTTGG,-0.289
CGAAGCCC,-0.0415
GGTACTTA,-0.0494
CCCAAATC,-0.125
CGTACGAG,0.178
GAAGAGTC,-0.0866
CTTTATAC,0.0902
CGCGGGTC,0.345
AGAGACGA,0.0238
GCAATGGC,-0.035
ACCCCTGC,-0.238
TCCCAGAA,-0.0903
AAGAACTG,-0.0722
CTAACCGA,0.0717
CAGACTGG,-0.211
AGGAAACC,0.0663
AATAGATA,-0.114
CAGTGTGG,-0.171
TCGTCTCA,-0.0157
CACTATCA,-0.129
GGACTTAA,-0.0841
ATAACTTG,-0.175

# Sample 4
# Target: RNA binding protein fox-1 homolog 2, RRM domain, GST-SBP tag (RBFOX2, Homo sapiens, UniProt O43251-10, residues 100-194)
# Method: RNA Bind-n-Seq
# Form: RNA
# Sample: in vitro
# Tested at: 365 nM
# Setting: natural RNA segment, single round, ends assumed
# Relative to: no-protein control
# Reading: higher = stronger binding
# Constant ends, left off below: GGGAGUUCUACAGUCCGACGAUC … UGGAAUUCUCGGGUGCCAA
# Residues (chain): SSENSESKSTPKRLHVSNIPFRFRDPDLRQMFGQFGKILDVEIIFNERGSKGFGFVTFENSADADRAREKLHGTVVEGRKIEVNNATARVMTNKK
Strand,RBNS enrichment (R)
CAGAAGUGAACCAAGGGUUAGACGCCAGAGGUUGGGCUUCUGUUAGAGUGGCUUCAAAACAUGAGCCUUAUGGGAAGUAGCCUUAAAAAAAGAAUGGGUAUACGCAGUGA,0.423
CUUUUGUAACAGGUUACGUAGACCAGCAGUGUUUAAAUCUAAAUACGUUGUGAGUCUGUUAUCUGUCCUAUCGCGUUUUUUAAAUGACUUUUUAUUCUUUAUCAUAGCUA,0.329
UCUCAGUGCAUGCUGUGCUUUUUCACAUUUGCUCUGGGUUAUCUGGGAAGUAUCAGGUUCUGGGAGGCAACAGCAUUAAGUGAUAAGAAAAGGAGACAUUCUGGCAAAGC,2.09
UUUACCAUCUUUCCUAUUCAUAUAUCUAUAUAGUAAAUUUCACUAGAAAAAUUCUUUUAAAAUUGACAGAAGAUAAUUUAUACCUUUUAUGGACUCUGAAGACACUUCAA,0.379
GCUUCCUCAGGAUUUUCUUCAGUUGCAAGUACCUUUCCACUGAAAAUAUGAGCAUGCCCGCCUGGCUAGUAGGCAUCUGUAAGAGUGUCGCCAGGCCCGCGCCAGCUGAG,0.61
CAUUUUCGAAGGAGCAGUGUGACCUCCUGUGACCCGUGAAUGUGCCUCCAAGCGGCCCUGUGUGUUUGACAUGUGAAGCUAUUUGAUAUGCACCAGGUCUCAAGGUUCUC,0.326
CGUUUCUCAGGAAGUAGUCCCUUAACCAAAACGUCUCUGAGAAGUGAUGCUUAGGUAAUCUCUGGGAUCCGAUUUUCCCACAUGUCUCACUCCACAGUAUGCUAAAGAAG,0.257
GUUUGUAUCCUCUUUUAUUUCCUUGAGCAGUAGCUUGUAGUUCUCCUUGAAGAGGUCCUUCACAUCCCUUGUAAGUUGGAUUCCUAGGUAUUUUAUUCUCUUUGAAGCAA,0.65
GACCAGGCGCUUGAUUGGGUGUUCAGUAUGGAGUAGAUGAAGUGCGUAUUUAUUUAAGGCGAAAGCUUUGACCUGAGCUGUCUUCCUCUCCCCUGUACAUGUACUGUAGA,0.377
AGAUCCAGGUGGGUGAGGGCAGGAGGCCCCUGCGGAGGCAGCGUGGAUCUGCCCACACAUAGGCUACUGGAAUAGUUUAACCCAGCAACUUUCCUUUUUAUAAAACAACA,0.687
AGUGUGUGUGUCUGUGUUUGUUUUAAAAGUCACUUAUUUCUUACAGUGAUUUCAAUUGCACCAUGACUUCUUCACUAAAACCACAAAGUCCUGCUUAAAACUAUGGAAAA,0.396
AGUGUGCGUGCGUUUGUGCCGAGCUUCUAUUUCAUAUUGCAAAUAUAAAUAAAGGAAGGCAGUUUACAUUCUGCUGGUCAGACCUUACGUUCUGGGAUGCGGGGUGGGGA,0.646

# Sample 5
# Target: Sal-like protein 4, full length isoform B (SALL4, Homo sapiens, UniProt Q9UJQ4-2, residues 1-616)
# Method: universal PBM
# Form: double-stranded DNA, one strand shown
# Sample: in vitro
# Tested at: not given
# Setting: 8-mer, flanks averaged, mean of replicates
# Reading: higher = stronger binding
Strand,E-score
CAGTCCTC,-0.131
CAACCGTG,-0.13
CTGGCGAC,-0.255
AGGTCCTA,-0.129
ACGAGGAA,0.0551
CAATCAAG,0.0203
AGGTCCGA,-0.101
CACCTTAG,-0.157
ACTTGGAG,-0.0701
AACTGGCC,-0.194
AATACTCC,0.0636
CGAGAAAA,0.0114
CATCTCGC,-0.25
CTTGCAAG,-0.0302
GGAACCCC,-0.354
CCTGTACA,0.121
GCCCTACA,-0.13
AACTTGAT,0.322
AGCTGGGA,-0.211
CTGGGTTA,-0.131
ATACAGAG,0.118

# Excerpt of the above (sample 3):
Strand,E-score
CCCAAATC,-0.125
GGACTTAA,-0.0841
GGTACTTA,-0.0494
AGAGACGA,0.0238
CAGTGTGG,-0.171
CGAAGCCC,-0.0415
